Results collected from several papers.
Protocols differ between the studies behind these lines. “And” joins repeats or separate records; there may be more than shown. ± gives the spread as reported.

CC(C)(O)c1cc(Nc2cc(Oc3cn(C4CC4)nc3C3CCOCC3)ccn2)ccn1 — treatment-related adverse events (Anemia; patients with advanced cancer, grade 4 glioma expansion; oral, 50 mg twice daily, grade ≥3, 2 weeks on/2 weeks off schedule): 0%
CC(C)N(CCc1c[nH]c2cccc(OC(=O)CCCC(=O)O)c12)C(C)C.Cl — AUC(0-inf) (male beagle dog, plasma; subcutaneous, 1 mg/kg): 645 ng·h/mL
O=c1nc(NO)ccn1[C@@H]1O[C@H](CO)[C@@H](O)[C@H]1O — bench-top stability (rat maternal blood dialysate; 1000 ng/mL, 6 h, room temperature, high QC concentration, together with: molnupiravir): 101 ± 1.82%
O=C(Nc1ccccc1)C1CCN(C(=O)Oc2cccnc2)CC1 — subjects with Phlebitis adverse event (adverse event reporting; healthy women; oral, 20 mg): 0%
CO[C@H]1C[C@@H]2CC[C@@H](C)[C@@](O)(O2)C(=O)C(=O)N2CCCC[C@H]2C(=O)O[C@H]([C@H](C)C[C@@H]2CC[C@@H](OC(=O)NCCOCCOCCOCCOCCOCCOCCOCCOCCC(=O)N3CCc4cc(Cn5nc(-c6ccc7oc(N)nc7c6)c6c(N)ncnc65)ccc4C3)[C@H](OC)C2)C[C@@H](O)[C@H](C)/C=C(\C)[C@@H](O)[C@@H](OC)C(=O)[C@H](C)C[C@H](C)/C=C/C=C/C=C/1C — incidence of Mucositis TEAE (patients with advanced solid tumours; intravenous, dose not given, grade ≥3): 10.5%
COc1cc2c(Oc3ccc4[nH]c(C)cc4c3F)ccnc2cc1OCC1(N)CC1 — grade 1 or 2 Anorexia (paediatric recurrent refractory sarcoma; 8 mg/kg): 20%
C=CCNc1c(O)cc2c(O)c1C[C@@H](C)C[C@H](OC)[C@H](O)[C@@H](C)/C=C(\C)[C@H](OC(N)=O)[C@@H](OC)/C=C\C=C(/C)C(=O)N2 — patients with lipase increase (unresectable or metastatic sarcoma; intravenous, 400 mg/m^2, grade 3-4 lab change): 6%
CCC[C@@](N)(CO)CCc1ccc(OCCCCCC(C)C)cc1 — half-life (dog; oral, 15 mg/kg): 16.9 h
CC(=O)c1c(C)c2cnc(Nc3ccc(C4CCN(CCS(C)(=O)=O)CC4)cn3)nc2n(C2CCCC2)c1=O — t1/2 (human, plasma; oral, 150 mg, day 1 single dose): 8.65 h
CC(C)n1c(C2CCNCC2)nc2c([N+](=O)[O-])c(Br)c(Br)cc21 — adverse events causing interruption (item: Vomiting; AML patients; 125 mg): 2%
COc1cc(C2C3=C(COC3=O)N(CCO)c3cc4c(cc32)CCC4)cc(OC)c1OC (stereo not shown) — body weight (female C57BL/6 mice; intraperitoneal, 200 mg/kg, 0 h, single dose, mean): 23 g
COc1ncnn2ccc(-c3cnc4nc(C)n(Cc5nnc([C@@H](C)F)o5)c4c3)c12 — incidence of Hyponatremia (human patients; oral, dose not given, grade 1 adverse drug reaction): 7.1%
COc1ccc([C@@H]2CC(=O)c3c(O)cc(O)cc3O2)cc1O — faecal excreted amount (male Sprague-Dawley rat, lean; oral, 100 mg/kg of neohesperidin, 12 to 24 h): 2050 ± 856 ng
NCCCC[C@@H]1NC(=O)[C@@H](Cc2c[nH]c3ccccc23)NC(=O)[C@H](c2ccccc2)NC(=O)[C@@H]2C[C@@H](OC(=O)NCCN)CN2C(=O)[C@H](Cc2ccccc2)NC(=O)[C@H](Cc2ccc(OCc3ccccc3)cc2)NC1=O — subjects with any adverse event (healthy human volunteers; 600 µg twice daily): 97%
CC1(C)C(/C=C(\Cl)C(F)(F)F)C1C(=O)OC(C#N)c1cccc(Oc2ccccc2)c1 (stereo not shown) — hepatic intrinsic clearance (IVIVE scaling; human adult): 3720 L/h/kg liver
O=S(=O)(Nc1ccccc1)c1ccc(NC(=S)Nc2ccccc2)cc1 — serum enzyme activity (item: ALKP; male mouse, blood; oral, 5 mg/kg daily, 14 days): 112 U/L
CC(C)C[C@H](NC(=O)[C@H](CCCCN)NC(=O)OCC1c2ccccc2-c2ccccc21)C(=O)N[C@H](C(=O)N[C@@H](Cc1ccccc1)C(=O)N[C@@H](Cc1ccccc1)C(=O)N[C@@H](CCCCN)C(=O)NCC(=O)N[C@@H](Cc1ccccc1)C(=O)N[C@@H](C)C(=O)N[C@@H](Cc1c[nH]c2ccccc12)C(=O)N[C@@H](CC(N)=O)C(=O)N[C@H](C(=O)N[C@H]1CSSC[C@@H](C(=O)N[C@@H](Cc2c[nH]cn2)C(=O)N[C@@H](CCCNC(=N)N)C(=O)N[C@@H](CCCNC(=N)N)C(=O)N[C@@H](C)C(=O)N[C@@H](CC(N)=O)C(N)=O)NC(=O)[C@H](C(C)C)NC(=O)[C@H](CCCNC(=N)N)NC(=O)[C@H](C(C)C)NC(=O)CNC(=O)[C@H](CC(N)=O)NC(=O)[C@H](CCCNC(=N)N)NC(=O)[C@H](Cc2ccc(O)cc2)NC(=O)[C@H](C(C)C)NC1=O)C(C)C)C(C)C — peptide remaining (HPLC; trypsin buffer; 0.50 h, 37 °C, together with: trypsin 1 % w/v): 77.6% and 73.2% and 76.1%
Cn1cncc1-c1c(F)cncc1NC(=O)c1c(N)nn2cc(F)cnc12 — patients grade ≥3 Platelet count decrease (human patients; oral, up to 40 mg once daily): 0%
C[C@@H](NC(=O)N1C(=O)[C@H](Cc2ccnc(N)c2)[C@H]1C(=O)O)C1CCCCC1 — incidence of AEs excluding prolonged aPTT (healthy adult Chinese volunteers; continuous intravenous infusion, 1.5 mg/kg/h, 5-day infusion, CTCAE 5.0 grading): 25%
COc1ncccc1-c1cnn2ccc(N3CCN(C(=O)OC(C)C)CC3)nc12 — drug concentration (mouse nerve ligation model, brain; oral, 3 mg/kg, 120 min after last dose, repeat dosing day 4): 1900 nM
C=CC(=O)N1CC[C@H](n2nc(C#Cc3cc(OC)cc(OC)c3)c3c(N)ncnc32)C1 — adverse drug reaction incidence (patients with advanced solid tumours; oral, dose not given, Vomiting, any grade, QD, together with: sevelamer hydrochloride): 18.2%
C[C@]1(O)C[C@@](N)(c2ccc(-c3nc4n(c3-c3ccccc3)COc3ccncc3-4)cc2)C1 — patients with Diarrhea TEAE (human, advanced or metastatic solid tumours; 16 mg once daily, dose-response cohort): 0%
O=c1oc(-c2cccc([N+](=O)[O-])c2)ns1 — hydrolysis half-life (RPMI medium; concentration not given, 37 °C, spontaneous hydrolysis): 0.34 h
O=C(Oc1ccccc1)[c-]1cccc1.[Fe+2].c1cc[cH-]c1 — reduction potential (cyclic voltammetry; methanol/DMEM 1:1 with TBAPF6; concentration not given, Pt disk electrode, Ag/AgCl reference, together with: scan rate 100 mV/s): 559 mV
C[C@@H](c1nc(-c2ccc(C#N)cc2)cs1)[C@](O)(Cn1cncn1)c1cc(F)ccc1F — adverse event Somnolence (healthy humans; oral, dose not given, together with: midazolam): 0%
COc1cc2nccc(Oc3ccc(NC(=O)c4cc5c(n(-c6ccccc6)c4=O)CCCC5=O)nc3)c2cc1OC — fatal drug-related TEAEs (relapsed/refractory AML patients; oral, 10 mg once daily): 0%
CC(C)Nc1ccnc(Nc2cccc(-c3cccnc3)c2)n1 — blood chemistry (item: Phosphorus; mouse, blood; intraperitoneal, 10 mg/kg): 11.4 mg/dL
CN(C(=O)n1cnc(-c2ccc[n+]([O-])c2)c1)C1CCCCC1 — concentration (Wistar rat, pons; oral, 10 mg/kg/day, 24 h, repeated 5 days): 14 ± 0.7 ng/g
COc1cccc(Oc2ccccc2NC(=O)CNC(=O)c2cccc3ccccc23)c1 — mean corpuscular hemoglobin concentration (esterase-deficient SCID mice, male, blood; oral, 40 mg/kg/day, 14 days, toxicity study): 32.1 g/dL and 33.9 g/dL and 32.8 g/dL
CNC(=O)c1cc(Oc2ccc(NC(=O)Nc3cc(C(C)(C)C)nn3-c3ccc4ncccc4c3)c(F)c2)ccn1 — related SAE (muscular weakness, NCI CTC v3.0; human patients; oral, all dose levels): 7%
CCc1ccc(CC/C=C/c2ccc3c(c2)C(=O)CC3)cc1 — CK serum activity (Sprague-Dawley rat, female; oral, 30 mg/kg/day, 14 days): 493 U/L
O=C1Nc2cc3[nH]nc(-c4ccncc4)c3cc2CN1Cc1ccccc1 — patients with acneiform dermatitis (CTCAE v4.03; advanced solid tumour patients; intravenous, 4.8 mg/kg, schedules 1/2): 25%
CCN1[C@@H](C(=O)NC23CCC(C(=O)O)(CC2)CC3)[C@H](c2cccc(Cl)c2F)[C@]2(C(=O)Nc3cc(Cl)ccc32)C12CCCCC2 — any-grade adverse event incidence (patients with advanced solid tumours; oral, 100 mg): 100%
CC[C@H](C)[C@H](NC(=O)[C@H](Cc1ccccc1)NC(=O)[C@H](CCC(=O)O)NC(=O)[C@H](CCCNC(=N)N)NC(=O)[C@H](C)NC(=O)[C@H](C)NC(=O)[C@H](CCC(N)=O)NC(=O)[C@H](CCC(=O)O)NC(=O)[C@H](CCC(=O)O)NC(=O)[C@H](CC(C)C)NC(=O)[C@H](Cc1ccc(O)cc1)NC(=O)[C@H](CO)NC(=O)[C@H](CO)NC(=O)[C@@H](NC(=O)[C@H](CC(=O)O)NC(=O)[C@H](CO)NC(=O)[C@@H](NC(=O)[C@H](Cc1ccccc1)NC(=O)[C@@H](NC(=O)CNC(=O)[C@H](CCC(=O)O)NC(=O)[C@H](C)NC(=O)CCc1cnc[nH]1)[C@@H](C)O)[C@@H](C)O)C(C)C)C(=O)N[C@@H](C)C(=O)N[C@@H](Cc1c[nH]c2ccccc12)C(=O)N[C@@H](CC(C)C)C(=O)N[C@H](C(=O)N[C@@H](CCCNC(=N)N)C(=O)NCC(=O)N[C@@H](CCCNC(=N)N)C(=O)N[C@@H](CCCCNC(=O)COCCOCCNC(=O)COCCOCCNC(=O)CC[C@H](NC(=O)CCCCCCCCCCCCCCCCC(=O)O)C(=O)O)C(=O)NCC(=O)NCC(=O)N[C@@H](CO)C(=O)N[C@@H](CCSC)C(=O)N[C@H](C(=O)N[C@@H](CCCCNc1c(NCCCCCN(O)C(=O)CCC(=O)NCCCCCN(O)C(=O)CCC(=O)NCCCCCN(O)C(C)=O)c(=O)c1=O)C(=O)O)C(C)C)C(C)C [zirconium-89 labelled] — tissue uptake (ex vivo gamma counting; male Sprague-Dawley rats, duodenum; intravenous, 5 MBq (1 nmol), 24 h): 0.152 %ID/g and 0.156 %ID/g and 0.14 %ID/g
C[C@]1(CO)Cc2ncn(-c3ccc(C#N)c(Cl)c3)c2C(=O)O1 — AUC(0-inf) (human, Chinese, plasma; 60 mg single dose, geometric mean): 20.2 µM·h
O=C(c1ccc(F)c(F)c1Nc1ccc(I)cc1F)N1CC(O)([C@@H]2CCCCN2)C1 — onset day of first chorioretinopathy DLT (human; oral, 1.33 mg/kg): 8 days
CN1CC[C@@H](c2c(O)cc(O)c3c(=O)cc(-c4ccc(C(F)(F)F)cc4Cl)oc23)[C@@H]1CO — adverse event incidence (item: Neutropenia; relapsed or refractory haematological malignancies; oral, dose not given, grade 3 to 4): 7.5%
